Measured values collected from several papers.
Protocols differ between the studies behind these lines. ± marks the error that the study gave.

CN[C@H]1C(=O)N[C@@H]2Cc3ccc(cc3)Oc3cc4cc(c3O[C@@H]3O[C@H](C(=O)O)[C@@H](O)[C@H](O)[C@H]3NC(=O)CCCCCCCCC(C)C)Oc3ccc(cc3Cl)[C@@H](O)[C@@H]3NC(=O)[C@H](NC(=O)[C@@H]4NC(=O)[C@@H](NC2=O)c2cc(cc(O)c2Cl)Oc2cc1ccc2O)c1ccc(O)c(c1)-c1c(O[C@H]2O[C@H](CO)[C@@H](O)[C@H](O)[C@@H]2O)cc(O)cc1[C@@H](C(=O)NCCCN(C)C)NC3=O
terminal half-life (LC-MS/MS non-compartmental; healthy Japanese subjects, plasma; intravenous infusion, 1000 mg, 30 min infusion, sampling to day 28, arithmetic mean): 193 h

O=C(c1cccnc1-c1ccncc1)N1CCC(O)(Cc2ccccc2)CC1
terminal half-life (healthy subjects, plasma; oral, 300 mg twice daily, day 1): 3.49 h

O=C1CCc2ccc(OCCCCN3CCN(c4cccc(Cl)c4Cl)CC3)cc2N1
terminal half-life (healthy Japanese men, CYP2D6 IM, plasma; oral, 3 mg aripiprazole single, with: paroxetine 20 mg/day): 129 ± 21.3 h

O=C(Nc1ccc(OC(F)(F)F)cc1)N[C@H]1CC[C@H](Oc2ccc(C(=O)O)cc2)CC1
terminal half-life (horses, plasma; intravenous, 0.1 mg/kg): 13 ± 3 h

CS(=O)(=O)n1cc2c(n1)CN([C@H]1CO[C@H](c3cc(F)ccc3F)[C@@H](N)C1)C2
terminal half-life (healthy Japanese men, plasma; oral, dose not given): > 100 h

COc1cccc(N2CCN(C3=Nc4c(F)cccc4[C@H](CC(=O)O)N3c3cc(C(F)(F)F)ccc3OC)CC2)c1
terminal half-life (UHPLC-MS/MS; healthy women, plasma; intravenous infusion, 480 mg single dose, 60 min infusion, HPβCD formulation): 13 ± 4.1 h

COc1cc2c(=O)c(-c3ccc(O)cc3)coc2cc1O[C@@H]1O[C@H](CO)[C@@H](O)[C@H](O)[C@H]1O
terminal half-life (UHPLC; healthy volunteers, urine; oral): 3.31 ± 0.08 h

NCCCC[C@@H]1NC(=O)[C@@H](Cc2c[nH]c3ccccc23)NC(=O)[C@H](c2ccccc2)NC(=O)[C@@H]2C[C@@H](OC(=O)NCCN)CN2C(=O)[C@H](Cc2ccccc2)NC(=O)[C@H](Cc2ccc(OCc3ccccc3)cc2)NC1=O
terminal half-life (healthy male volunteers, plasma; subcutaneous, 600 µg): 31.7 ± 6.5 h

N[C@@H](CC(=O)N1CCc2c(nc(C(F)(F)F)nc2C(F)(F)F)C1)CN1CC(F)(F)CCC1=O
terminal half-life (healthy Korean male volunteers; oral, 50 mg, day 6, alone, mean): 8.77 h

CCCOc1ccc([C@H]2CNC(=O)N2c2ccc3[nH]cnc3c2)cc1
terminal half-life (non-elderly adults, fasted, plasma; oral, 200 mg twice daily, day 11, oral solution, geometric mean): 6.36 h

CC(C)(Sc1ccncc1-c1ccc(C#N)c2ccccc12)C(=O)O
terminal half-life (male, plasma; oral, 15 mg, moderate renal impairment, fasted): 20.6 h

A few entries again:
O=C(c1cccnc1-c1ccncc1)N1CCC(O)(Cc2ccccc2)CC1
terminal half-life (healthy subjects, plasma; oral, 300 mg twice daily, day 1): 3.49 h
